Measurements from different studies.
Lines come from different studies, so protocols differ. Several values in a cell are separate wells, animals, samples, runs or records. Numbers after ± are the reported error. Converted amounts (≈) assume the structure as drawn.
Slc6a3: Sodium-dependent dopamine transporter (Slc6a3, Rattus norvegicus, UniProt P23977)
Or2c1: Or2c1 (Mus musculus, UniProt P23275)
OPRK1: Kappa-type opioid receptor (OPRK1, Homo sapiens, UniProt P41145)
NOX5: NADPH oxidase 5 (NOX5, Homo sapiens, UniProt Q96PH1)
Oprk1: Kappa-type opioid receptor (Oprk1, Mus musculus, UniProt P33534)
Slc6a4: Sodium-dependent serotonin transporter (Slc6a4, Rattus norvegicus, UniProt P31652)
OPRD1: Delta-type opioid receptor (OPRD1, Homo sapiens, UniProt P41143)
OPRM1: Mu-type opioid receptor (OPRM1, Homo sapiens, UniProt P35372)

Sequences of proteins named here, by UniProt entry; tags and fusion partners are left off. Residues count along the entry.
UniProt P23977, whole entry: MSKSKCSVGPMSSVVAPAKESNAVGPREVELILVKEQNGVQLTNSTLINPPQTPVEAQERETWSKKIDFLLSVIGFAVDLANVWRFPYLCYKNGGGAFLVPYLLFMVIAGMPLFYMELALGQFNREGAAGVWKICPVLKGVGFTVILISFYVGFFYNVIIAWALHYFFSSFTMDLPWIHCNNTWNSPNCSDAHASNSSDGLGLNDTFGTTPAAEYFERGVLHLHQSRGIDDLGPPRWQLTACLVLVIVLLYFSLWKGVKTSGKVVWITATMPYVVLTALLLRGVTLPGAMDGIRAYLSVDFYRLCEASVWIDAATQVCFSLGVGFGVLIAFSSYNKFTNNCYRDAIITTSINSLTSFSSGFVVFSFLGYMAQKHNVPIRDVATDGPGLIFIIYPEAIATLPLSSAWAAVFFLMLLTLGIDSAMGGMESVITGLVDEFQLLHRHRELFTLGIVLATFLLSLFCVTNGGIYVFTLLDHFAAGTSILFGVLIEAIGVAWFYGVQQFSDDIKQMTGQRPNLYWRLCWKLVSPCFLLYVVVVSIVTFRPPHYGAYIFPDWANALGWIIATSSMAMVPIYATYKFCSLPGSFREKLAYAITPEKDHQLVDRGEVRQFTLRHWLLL
UniProt P23275, whole entry: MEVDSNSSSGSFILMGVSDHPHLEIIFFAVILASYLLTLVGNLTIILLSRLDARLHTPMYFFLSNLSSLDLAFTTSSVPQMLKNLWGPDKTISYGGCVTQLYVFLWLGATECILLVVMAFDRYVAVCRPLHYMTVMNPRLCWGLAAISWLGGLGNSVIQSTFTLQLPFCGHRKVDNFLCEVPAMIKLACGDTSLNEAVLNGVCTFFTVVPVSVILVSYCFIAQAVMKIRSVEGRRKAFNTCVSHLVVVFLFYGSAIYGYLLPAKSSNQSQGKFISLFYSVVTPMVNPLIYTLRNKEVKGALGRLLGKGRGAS
UniProt Q96PH1, 1-719 isoform 4: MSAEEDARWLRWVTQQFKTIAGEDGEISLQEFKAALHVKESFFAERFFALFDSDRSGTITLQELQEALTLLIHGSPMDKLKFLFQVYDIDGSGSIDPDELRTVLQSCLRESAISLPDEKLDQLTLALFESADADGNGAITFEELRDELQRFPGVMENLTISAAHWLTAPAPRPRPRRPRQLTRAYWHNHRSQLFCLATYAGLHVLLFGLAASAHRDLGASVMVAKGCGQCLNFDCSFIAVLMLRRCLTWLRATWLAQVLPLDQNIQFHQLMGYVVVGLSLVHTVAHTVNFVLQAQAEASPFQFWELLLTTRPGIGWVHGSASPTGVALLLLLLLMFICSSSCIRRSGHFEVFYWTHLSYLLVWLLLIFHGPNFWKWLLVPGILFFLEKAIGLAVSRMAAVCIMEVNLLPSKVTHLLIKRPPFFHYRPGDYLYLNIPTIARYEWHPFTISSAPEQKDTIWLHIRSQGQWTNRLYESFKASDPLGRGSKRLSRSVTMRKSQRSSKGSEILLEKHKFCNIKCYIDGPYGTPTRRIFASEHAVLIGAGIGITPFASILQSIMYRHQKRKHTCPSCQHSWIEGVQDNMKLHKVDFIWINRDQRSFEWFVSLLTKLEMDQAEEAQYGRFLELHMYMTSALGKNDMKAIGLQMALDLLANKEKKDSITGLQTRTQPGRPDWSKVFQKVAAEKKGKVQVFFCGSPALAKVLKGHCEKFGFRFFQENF
UniProt P31652, whole entry: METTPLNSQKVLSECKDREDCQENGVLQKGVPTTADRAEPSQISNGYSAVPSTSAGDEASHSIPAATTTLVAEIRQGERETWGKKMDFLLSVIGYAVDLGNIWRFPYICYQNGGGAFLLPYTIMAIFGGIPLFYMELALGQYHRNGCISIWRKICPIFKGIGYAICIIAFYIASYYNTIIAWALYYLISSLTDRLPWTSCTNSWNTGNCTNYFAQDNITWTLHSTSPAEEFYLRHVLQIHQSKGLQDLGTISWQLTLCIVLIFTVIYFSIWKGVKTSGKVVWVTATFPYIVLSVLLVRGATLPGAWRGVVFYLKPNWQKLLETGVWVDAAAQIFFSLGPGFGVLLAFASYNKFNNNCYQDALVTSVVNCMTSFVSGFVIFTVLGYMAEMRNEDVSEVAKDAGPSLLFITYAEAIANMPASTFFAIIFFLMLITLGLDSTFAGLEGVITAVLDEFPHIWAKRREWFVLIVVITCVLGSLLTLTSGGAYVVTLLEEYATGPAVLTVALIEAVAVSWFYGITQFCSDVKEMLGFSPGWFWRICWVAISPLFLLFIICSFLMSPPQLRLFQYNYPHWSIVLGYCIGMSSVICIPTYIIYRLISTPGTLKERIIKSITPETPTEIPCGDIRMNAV
UniProt P41143, whole entry: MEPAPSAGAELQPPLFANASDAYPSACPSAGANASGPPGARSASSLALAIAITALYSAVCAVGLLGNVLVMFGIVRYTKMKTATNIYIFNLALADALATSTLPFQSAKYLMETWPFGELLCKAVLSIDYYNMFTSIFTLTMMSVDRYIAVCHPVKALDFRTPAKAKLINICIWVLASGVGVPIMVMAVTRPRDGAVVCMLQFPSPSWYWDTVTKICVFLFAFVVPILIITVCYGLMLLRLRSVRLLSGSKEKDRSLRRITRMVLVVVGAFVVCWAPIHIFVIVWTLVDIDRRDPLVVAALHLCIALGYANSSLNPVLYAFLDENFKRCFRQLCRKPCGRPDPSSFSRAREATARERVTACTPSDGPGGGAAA
UniProt P35372, whole entry: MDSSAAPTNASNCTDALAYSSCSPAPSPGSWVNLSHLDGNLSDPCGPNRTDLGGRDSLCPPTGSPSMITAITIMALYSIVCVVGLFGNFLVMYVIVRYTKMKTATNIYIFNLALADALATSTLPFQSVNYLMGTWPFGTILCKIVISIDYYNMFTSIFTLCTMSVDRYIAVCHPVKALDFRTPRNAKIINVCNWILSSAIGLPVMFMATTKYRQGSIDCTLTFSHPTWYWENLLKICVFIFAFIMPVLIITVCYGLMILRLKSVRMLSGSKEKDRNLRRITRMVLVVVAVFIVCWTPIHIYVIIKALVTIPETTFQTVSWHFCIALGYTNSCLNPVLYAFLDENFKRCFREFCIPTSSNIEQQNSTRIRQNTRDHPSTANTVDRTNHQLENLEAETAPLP
UniProt Q63380, 1-617: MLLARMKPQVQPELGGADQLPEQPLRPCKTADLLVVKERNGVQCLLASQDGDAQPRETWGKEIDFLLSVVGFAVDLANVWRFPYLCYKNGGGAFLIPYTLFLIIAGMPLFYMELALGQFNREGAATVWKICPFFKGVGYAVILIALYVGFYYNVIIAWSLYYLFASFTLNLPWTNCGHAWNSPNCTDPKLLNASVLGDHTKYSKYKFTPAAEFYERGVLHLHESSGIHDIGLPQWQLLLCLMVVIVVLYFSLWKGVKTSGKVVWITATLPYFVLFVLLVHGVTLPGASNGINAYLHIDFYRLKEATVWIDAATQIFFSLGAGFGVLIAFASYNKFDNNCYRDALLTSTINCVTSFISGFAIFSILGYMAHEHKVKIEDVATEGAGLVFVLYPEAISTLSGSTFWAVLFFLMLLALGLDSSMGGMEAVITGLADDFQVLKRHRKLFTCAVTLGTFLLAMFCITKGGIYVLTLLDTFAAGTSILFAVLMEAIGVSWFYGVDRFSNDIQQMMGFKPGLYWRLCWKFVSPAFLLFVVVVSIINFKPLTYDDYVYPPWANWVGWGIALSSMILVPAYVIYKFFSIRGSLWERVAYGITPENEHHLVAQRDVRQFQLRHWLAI
UniProt Q13002, 32-908 limits assumed: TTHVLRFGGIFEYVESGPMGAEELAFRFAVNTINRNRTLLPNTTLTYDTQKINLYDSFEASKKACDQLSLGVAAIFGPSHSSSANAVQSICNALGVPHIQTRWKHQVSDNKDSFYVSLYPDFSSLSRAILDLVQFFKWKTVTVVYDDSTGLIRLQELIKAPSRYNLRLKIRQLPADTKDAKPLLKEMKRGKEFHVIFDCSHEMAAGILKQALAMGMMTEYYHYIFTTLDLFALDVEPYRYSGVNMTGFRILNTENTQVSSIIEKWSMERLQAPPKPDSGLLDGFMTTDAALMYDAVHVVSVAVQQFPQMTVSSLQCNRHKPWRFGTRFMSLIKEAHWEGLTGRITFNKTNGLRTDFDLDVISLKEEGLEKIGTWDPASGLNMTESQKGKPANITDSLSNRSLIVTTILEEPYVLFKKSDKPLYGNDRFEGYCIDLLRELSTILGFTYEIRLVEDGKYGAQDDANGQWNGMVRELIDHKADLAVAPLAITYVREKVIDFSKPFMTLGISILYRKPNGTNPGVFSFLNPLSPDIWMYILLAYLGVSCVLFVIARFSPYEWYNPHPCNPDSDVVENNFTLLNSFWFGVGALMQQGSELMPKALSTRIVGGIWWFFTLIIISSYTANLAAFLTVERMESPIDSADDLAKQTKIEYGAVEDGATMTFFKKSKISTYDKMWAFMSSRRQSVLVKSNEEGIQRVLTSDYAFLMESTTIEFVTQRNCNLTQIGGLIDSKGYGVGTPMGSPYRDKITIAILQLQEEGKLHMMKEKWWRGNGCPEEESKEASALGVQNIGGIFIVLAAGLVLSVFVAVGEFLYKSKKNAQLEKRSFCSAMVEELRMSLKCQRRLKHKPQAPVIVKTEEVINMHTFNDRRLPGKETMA
UniProt P67660, whole entry L212A, looked up: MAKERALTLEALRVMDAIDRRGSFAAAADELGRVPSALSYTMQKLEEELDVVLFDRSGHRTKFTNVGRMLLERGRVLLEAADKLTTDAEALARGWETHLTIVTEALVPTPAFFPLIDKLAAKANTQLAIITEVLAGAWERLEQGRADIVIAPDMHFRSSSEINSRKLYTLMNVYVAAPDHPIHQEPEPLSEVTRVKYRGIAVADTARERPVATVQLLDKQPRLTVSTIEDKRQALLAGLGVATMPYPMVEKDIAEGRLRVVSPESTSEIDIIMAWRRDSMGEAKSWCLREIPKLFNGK
UniProt Q62645, whole entry, looked up: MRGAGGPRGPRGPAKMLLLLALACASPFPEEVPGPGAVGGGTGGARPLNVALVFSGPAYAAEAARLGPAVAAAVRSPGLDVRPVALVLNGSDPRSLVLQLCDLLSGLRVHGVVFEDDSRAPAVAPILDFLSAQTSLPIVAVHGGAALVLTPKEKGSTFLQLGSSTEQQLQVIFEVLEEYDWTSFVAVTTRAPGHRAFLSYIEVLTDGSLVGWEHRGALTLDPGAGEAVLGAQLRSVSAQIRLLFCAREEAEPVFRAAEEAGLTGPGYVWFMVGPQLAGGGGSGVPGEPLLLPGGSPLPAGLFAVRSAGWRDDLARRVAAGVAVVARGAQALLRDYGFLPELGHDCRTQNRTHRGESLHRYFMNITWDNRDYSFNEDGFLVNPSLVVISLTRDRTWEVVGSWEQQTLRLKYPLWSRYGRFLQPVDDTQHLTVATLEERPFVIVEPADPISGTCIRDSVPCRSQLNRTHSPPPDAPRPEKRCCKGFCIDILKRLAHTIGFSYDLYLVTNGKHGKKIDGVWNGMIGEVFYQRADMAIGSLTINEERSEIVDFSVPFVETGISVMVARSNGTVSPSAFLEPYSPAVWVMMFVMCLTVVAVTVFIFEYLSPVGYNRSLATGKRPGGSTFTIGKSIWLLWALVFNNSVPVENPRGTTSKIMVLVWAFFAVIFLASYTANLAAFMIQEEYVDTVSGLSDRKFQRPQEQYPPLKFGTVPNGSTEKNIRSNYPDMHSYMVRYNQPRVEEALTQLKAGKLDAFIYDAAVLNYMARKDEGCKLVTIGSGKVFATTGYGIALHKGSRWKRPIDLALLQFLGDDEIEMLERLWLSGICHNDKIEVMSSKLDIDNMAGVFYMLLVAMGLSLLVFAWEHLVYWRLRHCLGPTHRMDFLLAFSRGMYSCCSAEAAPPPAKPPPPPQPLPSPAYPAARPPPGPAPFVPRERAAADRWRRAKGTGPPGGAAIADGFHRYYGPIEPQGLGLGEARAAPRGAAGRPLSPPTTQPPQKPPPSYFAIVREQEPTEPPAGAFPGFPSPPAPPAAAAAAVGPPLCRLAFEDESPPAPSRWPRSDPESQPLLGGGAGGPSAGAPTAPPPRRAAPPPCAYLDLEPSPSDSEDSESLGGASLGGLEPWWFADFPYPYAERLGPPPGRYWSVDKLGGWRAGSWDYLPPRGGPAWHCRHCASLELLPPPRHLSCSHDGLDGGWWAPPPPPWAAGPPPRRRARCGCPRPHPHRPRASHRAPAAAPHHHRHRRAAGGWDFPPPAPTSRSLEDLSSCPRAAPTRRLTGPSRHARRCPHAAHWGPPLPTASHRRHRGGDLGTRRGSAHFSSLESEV
UniProt Q9H3N8, whole entry: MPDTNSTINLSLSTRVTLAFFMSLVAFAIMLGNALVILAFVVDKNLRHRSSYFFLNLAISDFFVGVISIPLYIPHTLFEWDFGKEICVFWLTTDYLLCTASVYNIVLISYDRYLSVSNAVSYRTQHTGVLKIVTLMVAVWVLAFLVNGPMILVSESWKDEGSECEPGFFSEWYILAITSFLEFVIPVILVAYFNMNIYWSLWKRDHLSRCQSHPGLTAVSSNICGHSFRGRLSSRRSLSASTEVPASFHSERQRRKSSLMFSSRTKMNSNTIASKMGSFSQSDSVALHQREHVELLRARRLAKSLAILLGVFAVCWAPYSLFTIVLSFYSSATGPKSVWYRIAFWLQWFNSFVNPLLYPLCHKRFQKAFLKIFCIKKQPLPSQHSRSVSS

With `NCCc1c[nH]c2ccccc12` the EC50 was under 0.165 µM (Slc6a3; dopamine release, releaser; rat brain synaptosomes).
`CCOc1ccc2cc(-c3nn(C(C)(C)CCO)c(N)c3C(N)=O)ccc2c1` gave an IC50 of 0.0002 µM (CDPK1 (Toxoplasma gondii, UniProt Q9BJF5); kinase activity, inhibitor).
With `CCCCCCC=O` the EC50 was 19 ± 6 µM (Or2c1; ion current, agonist, two-electrode voltage clamp; Xenopus oocytes; 15 s).
`CN(C(=O)Cc1ccc(Cl)c(Cl)c1)C1CCC2(CCCO2)CC1N1CCCC1` (centres unmarked) has an EC50 of 0.012 µM (OPRK1; agonist; human receptor).
`CC#C/C(=N\OC[C@H]1COCCN1)c1ccc2ncnc(Nc3ccc(OCc4cccc(F)c4)c(Cl)c3)c2c1` has an inhibition of 36.3% (EPHA6 (Homo sapiens, UniProt Q9UF33); kinase activity; 10 µM).
The EC50 of `Cc1ccc2nc(Sc3ncnc4c3nnn4Cc3ccccc3)oc2c1` is reported as 2.5 ± 1 µM (NOX5; enzyme activity, Amplex Red; NOX5-overexpressing cells).
For `NCCc1c[nH]c2cc(F)ccc12`, the EC50 was 1.57 ± 0.104 µM (Transporter (Slc6a2, Rattus norvegicus, UniProt Q63380); noradrenaline release, releaser; rat brain synaptosomes).
With `CC(C)c1ccc2nc(Sc3ncnc4c3nnn4Cc3ccccc3)oc2c1` the EC50 was 0.86 ± 0.3 µM (NOX5; enzyme activity, Amplex Red; NOX5-overexpressing cells).
With `COc1ccc2c(CCN)c[nH]c2c1` the EC50 was 0.113 µM and < 0.165 µM (Slc6a3; dopamine release, releaser; rat brain synaptosomes).
For `O[As](O)O`, the EC50 was 700 ± 50 µM (Arsenical pump-driving ATPase (arsA, Escherichia coli, UniProt P08690); enzyme activation, activator).
`C[C@H](Cc1ccc(O)c(O)c1)[C@@H](C)Cc1ccc(O)c(O)c1`: “total amount permeated” 28.2 ± 3.46 µg (human skin; 3% solution, 8 h, skin UV-treated 20 min).
With `CN(C(=O)Cc1cccc2occc12)[C@H]1CC[C@@]2(CCCO2)C[C@@H]1N1CCCC1` the EC50 was 0.004 µM (Oprk1; receptor internalization, agonist, on-cell western; N2a; 1 h, mouse receptor).
The EC50 of `Clc1ccc2nc(Sc3ncnc4c3nnn4Cc3ccccc3)oc2c1` is reported as 1.8 ± 0.7 µM (NOX5; enzyme activity, Amplex Red; NOX5-overexpressing cells).
`ethoxymethyl salvinorin B` gave an EC50 of 0.00053 µM (Oprk1; agonist; mouse receptor).
For `NCCc1c[nH]c2cccc(F)c12`, the EC50 was 0.106 ± 0.005 µM (Slc6a3; dopamine release, releaser; rat brain synaptosomes).
`CSc1nc(Cl)cc(Sc2nnc(-c3cc(C(F)(F)F)cc(C(F)(F)F)c3)[nH]2)n1` has an MIC of 1 µg/mL (≈ 2.12 µM) (Salmonella Typhimurium; SL1344; with: NAB7061 4 µg/mL).
With `O=C(Cn1c(-c2ccccn2)nc2ccccc21)Nc1ccc2ccccc2c1` the IC50 was 0.0005 µM (Inosine-5'-monophosphate dehydrogenase (guaB, Helicobacter pylori, UniProt P56088); enzyme activity, inhibitor; corrected for open enzyme conformation).
For `Cc1cccc2c(CCN)c[nH]c12`, the EC50 was 0.0237 ± 0.0019 µM (Slc6a4; serotonin release, releaser; rat brain synaptosomes).
`CC[C@](O)([C@H]1C[C@@]23CC[C@]1(OC)[C@@H]1Oc4c(O)ccc5c4[C@@]12CCN(CC1CC1)[C@@H]3C5)C(C)(C)C` has an EC50 of over 10 µM (OPRD1; G-protein activation, agonist).
With `NCCc1c[nH]c2ccccc12` the EC50 was 0.164 ± 0.016 µM (Slc6a3; dopamine release, releaser; rat striatal synaptosomes).
With `Brc1ccc2nc(Sc3ncnc4c3nnn4Cc3ccccc3)oc2c1` the EC50 was 2.5 ± 0.3 µM (NOX5; enzyme activity, Amplex Red; NOX5-overexpressing cells).
`CCN(CC)C(=O)Oc1ccc(C(=O)Nc2cccc3cc[nH]c23)cc1` gave a current response of 96.5 ± 4.6% (Glutamate receptor ionotropic, kainate 2/Glutamate receptor ionotropic, kainate 5 (Homo sapiens, UniProt Q13002+Q16478); modulator, two-electrode voltage clamp; Xenopus oocytes; 20 µM, with: 100 µM AMPA; reference: agonist alone).
For `CNCCc1c[nH]c2ccccc12`, the EC50 was 0.0224 ± 0.0014 µM (Slc6a4; serotonin release, releaser; rat brain synaptosomes).
With `Cc1cc(O)ccc1O` the Kd was 9000 ± 3700 µM (Probable HTH-type transcriptional regulator YhaJ, effector-binding domain (yhaJ, Escherichia coli, UniProt P67660, L212A); microscale thermophoresis; pH 7.5).
The peak current of `COc1ccc(OC[C@H]2c3cccn3CC(=O)N2Cc2cccc(F)c2)cc1` is reported as -275 ± 137 pA (Glutamate receptor ionotropic, NMDA 2D, with GluN1 (Rattus norvegicus, UniProt Q62645); ion current, whole-cell patch clamp; HEK293T cells, transfected; 10 µM, holding -70 mV, with: 1 mM glutamate for 10 ms plus 100 µM glycine).
For `NCCc1c[nH]c2ccc(Br)cc12`, the EC50 was 0.075 ± 0.0077 µM (Slc6a4; serotonin release, releaser; rat brain synaptosomes).
The EC50 of `FC(F)(F)c1ccc2nc(Sc3ncnc4c3nnn4Cc3ccccc3)oc2c1` is reported as 2 ± 0.9 µM (NOX5; enzyme activity, Amplex Red; NOX5-overexpressing cells).
For `CC[C@@](O)(c1ccccc1)[C@H]1C[C@@]23CC[C@]1(OC)[C@@H]1Oc4c(O)ccc5c4[C@@]12CCN(CC1CC1)[C@@H]3C5`, the EC50 was 0.0184 ± 0.0057 µM (OPRM1; G-protein activation, agonist; reference: DAMGO).
The Ki of `CCCN1CCN(c2ccc3c(c2)C2CC3CCN2C(=O)OCc2ccccc2)CC1` (centres unmarked) is reported as over 10 µM (HRH4 (Homo sapiens, UniProt Q9H3N8); binding, radioligand binding).
`CCCCCC(C)=O` gave an EC50 of 4 ± 1 µM (Or2c1; ion current, agonist, two-electrode voltage clamp; Xenopus oocytes; 15 s).
With `CC[C@](O)([C@H]1C[C@@]23C=C[C@]1(OC)[C@@H]1Oc4c(O)ccc5c4[C@@]12CCN(CC1CC1)[C@@H]3C5)C(C)(C)C` the EC50 was 0.314 ± 0.011 µM (OPRD1; G-protein activation, agonist).
`CCCCCCC1c2ccc(O)cc2Oc2cc(O)ccc21` gave an MIC of over 373 µg/mL (Shigella flexneri; ATCC 12022; no additive).
For `CCC(N)Cc1c[nH]c2ccc(Cl)cc12` (centres unmarked), the EC50 was 0.0332 ± 0.0036 µM (Slc6a4; serotonin release, releaser; rat brain synaptosomes).
Under “log2 fold change”, `CCN1CCN(Cc2ccc(NC(=O)c3ccc(C)c(/C=C/c4cnc5[nH]ccc5c4OC)c3)cc2C(F)(F)F)CC1` is recorded as 0.174 (TPM4-ALK fusion; kinase-CDC37 interaction, cell-based kinome screen; 5 µM; reference: vehicle).
`O=C(Nc1ccccc1)c1cc([N+](=O)[O-])ccc1Cl` gave a revertants of 2040 ± 46 revertants/plate (Salmonella typhimurium; Ames plate incorporation; TA100; 500 µg/plate, without metabolic activation).
`CO[C@]12CC[C@@]3(C[C@@H]1[C@@H](O)c1ccccc1)[C@H]1Cc4ccc(O)c5c4[C@@]3(CCN1CC1CC1)[C@H]2O5` gave an EC50 of 0.00155 ± 0.00028 µM (OPRM1; G-protein activation, agonist; reference: DAMGO).
For `NCCc1c[nH]c2ccc(Cl)cc12`, the EC50 was 0.476 µM and < 0.5 µM (Slc6a3; dopamine release, releaser; rat brain synaptosomes).
For `CC[C@@](O)(c1ccccc1)[C@H]1C[C@@]23C=C[C@]1(OC)[C@@H]1Oc4c(O)ccc5c4[C@@]12CCN(CC1CC1)[C@@H]3C5`, the EC50 was 0.0318 ± 0.0185 µM (OPRM1; G-protein activation, agonist; reference: DAMGO).
`Cc1cccc2nc(Sc3ncnc4c3nnn4Cc3ccccc3)oc12` gave an EC50 of 3.1 ± 1 µM (NOX5; enzyme activity, Amplex Red; NOX5-overexpressing cells).
The EC50 of `CO[C@]12C=C[C@@]3(C[C@@H]1[C@H](O)c1ccccc1)[C@H]1Cc4ccc(O)c5c4[C@@]3(CCN1CC1CC1)[C@H]2O5` is reported as 0.0021 ± 0.00049 µM (OPRK1; G-protein activation, agonist).
With `CCC[C@@H](C)COc1ccc([C@@H](CO)C(=O)N[C@H](C)c2ccccc2)cc1` the EC50 was 0.562 µM (G protein-coupled receptor 88 (Homo sapiens, UniProt Q9GZN0); cAMP level, agonist, TR-FRET; CHO overexpressing G protein-coupled receptor 88; with: forskolin 300 nM).

Some of these lines once more:
For `NCCc1c[nH]c2cccc(F)c12`, the EC50 was 0.106 ± 0.005 µM (Slc6a3; dopamine release, releaser; rat brain synaptosomes).
Under “log2 fold change”, `CCN1CCN(Cc2ccc(NC(=O)c3ccc(C)c(/C=C/c4cnc5[nH]ccc5c4OC)c3)cc2C(F)(F)F)CC1` is recorded as 0.174 (TPM4-ALK fusion; kinase-CDC37 interaction, cell-based kinome screen; 5 µM; reference: vehicle).
The EC50 of `FC(F)(F)c1ccc2nc(Sc3ncnc4c3nnn4Cc3ccccc3)oc2c1` is reported as 2 ± 0.9 µM (NOX5; enzyme activity, Amplex Red; NOX5-overexpressing cells).
For `NCCc1c[nH]c2ccc(Br)cc12`, the EC50 was 0.075 ± 0.0077 µM (Slc6a4; serotonin release, releaser; rat brain synaptosomes).
`CCCCCCC1c2ccc(O)cc2Oc2cc(O)ccc21` gave an MIC of over 373 µg/mL (Shigella flexneri; ATCC 12022; no additive).
